Assay results collected from several papers.
Parts stem from different laboratories: compare values within a part only. “And” joins repeats or separate records; there may be more than shown.
Chain of UniProt P41743 (whole entry, looked up): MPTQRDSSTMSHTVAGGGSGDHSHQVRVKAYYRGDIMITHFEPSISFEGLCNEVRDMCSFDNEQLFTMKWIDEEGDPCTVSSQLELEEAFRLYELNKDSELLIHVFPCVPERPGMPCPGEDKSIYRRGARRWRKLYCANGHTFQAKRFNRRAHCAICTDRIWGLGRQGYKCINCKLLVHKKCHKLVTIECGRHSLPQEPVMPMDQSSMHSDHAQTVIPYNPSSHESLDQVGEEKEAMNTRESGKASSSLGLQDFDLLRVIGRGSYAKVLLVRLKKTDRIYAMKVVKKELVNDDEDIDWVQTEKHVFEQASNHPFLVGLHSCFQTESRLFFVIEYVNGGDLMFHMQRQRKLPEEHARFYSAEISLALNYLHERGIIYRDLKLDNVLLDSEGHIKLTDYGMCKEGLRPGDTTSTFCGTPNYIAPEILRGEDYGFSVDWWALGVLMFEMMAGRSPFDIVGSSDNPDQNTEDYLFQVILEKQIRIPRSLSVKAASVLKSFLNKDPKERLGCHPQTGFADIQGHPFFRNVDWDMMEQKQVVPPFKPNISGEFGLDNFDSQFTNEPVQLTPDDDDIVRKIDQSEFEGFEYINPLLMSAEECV
Chain of UniProt P46734 (whole entry, looked up): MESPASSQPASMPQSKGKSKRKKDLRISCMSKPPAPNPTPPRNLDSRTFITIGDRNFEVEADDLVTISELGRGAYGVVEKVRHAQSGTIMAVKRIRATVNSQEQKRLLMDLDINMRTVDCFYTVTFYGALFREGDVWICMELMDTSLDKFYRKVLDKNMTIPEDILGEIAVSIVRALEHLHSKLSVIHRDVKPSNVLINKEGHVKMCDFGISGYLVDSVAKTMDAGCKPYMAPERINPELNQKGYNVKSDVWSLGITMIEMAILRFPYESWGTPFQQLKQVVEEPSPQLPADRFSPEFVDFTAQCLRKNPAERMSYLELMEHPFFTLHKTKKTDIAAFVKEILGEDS
Chain of UniProt P49674 (whole entry, looked up): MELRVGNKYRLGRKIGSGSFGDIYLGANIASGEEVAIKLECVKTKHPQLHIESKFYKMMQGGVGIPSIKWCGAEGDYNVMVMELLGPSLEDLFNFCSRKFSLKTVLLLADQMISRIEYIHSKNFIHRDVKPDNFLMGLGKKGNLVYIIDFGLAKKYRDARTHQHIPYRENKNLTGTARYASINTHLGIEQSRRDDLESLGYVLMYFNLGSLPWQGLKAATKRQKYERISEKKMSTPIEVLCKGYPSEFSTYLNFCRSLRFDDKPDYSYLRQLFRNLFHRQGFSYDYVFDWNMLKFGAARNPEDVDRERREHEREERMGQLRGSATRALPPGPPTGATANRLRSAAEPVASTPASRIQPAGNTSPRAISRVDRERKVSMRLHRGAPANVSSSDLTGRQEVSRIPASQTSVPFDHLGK
Chain of UniProt P57059 (whole entry, looked up): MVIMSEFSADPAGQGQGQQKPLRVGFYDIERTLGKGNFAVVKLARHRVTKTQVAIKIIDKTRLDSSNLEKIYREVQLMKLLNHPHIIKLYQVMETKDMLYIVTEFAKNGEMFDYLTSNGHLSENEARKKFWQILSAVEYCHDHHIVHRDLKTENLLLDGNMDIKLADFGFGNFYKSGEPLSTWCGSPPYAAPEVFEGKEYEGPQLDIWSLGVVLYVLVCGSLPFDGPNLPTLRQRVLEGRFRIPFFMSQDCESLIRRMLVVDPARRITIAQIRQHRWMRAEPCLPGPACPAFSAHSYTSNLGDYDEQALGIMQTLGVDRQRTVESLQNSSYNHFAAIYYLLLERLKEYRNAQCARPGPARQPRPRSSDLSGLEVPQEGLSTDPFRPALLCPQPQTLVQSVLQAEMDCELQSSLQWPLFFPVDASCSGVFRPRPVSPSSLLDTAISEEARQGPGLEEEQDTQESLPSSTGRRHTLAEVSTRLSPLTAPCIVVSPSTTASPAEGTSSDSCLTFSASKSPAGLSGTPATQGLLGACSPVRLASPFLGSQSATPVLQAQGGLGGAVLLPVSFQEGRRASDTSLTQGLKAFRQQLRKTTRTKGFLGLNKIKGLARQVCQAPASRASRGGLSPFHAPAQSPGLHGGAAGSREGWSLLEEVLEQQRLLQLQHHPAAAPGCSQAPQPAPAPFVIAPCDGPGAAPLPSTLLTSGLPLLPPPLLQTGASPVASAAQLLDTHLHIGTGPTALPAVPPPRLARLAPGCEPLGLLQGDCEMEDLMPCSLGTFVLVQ
Chain of UniProt Q8N5S9 (whole entry, looked up): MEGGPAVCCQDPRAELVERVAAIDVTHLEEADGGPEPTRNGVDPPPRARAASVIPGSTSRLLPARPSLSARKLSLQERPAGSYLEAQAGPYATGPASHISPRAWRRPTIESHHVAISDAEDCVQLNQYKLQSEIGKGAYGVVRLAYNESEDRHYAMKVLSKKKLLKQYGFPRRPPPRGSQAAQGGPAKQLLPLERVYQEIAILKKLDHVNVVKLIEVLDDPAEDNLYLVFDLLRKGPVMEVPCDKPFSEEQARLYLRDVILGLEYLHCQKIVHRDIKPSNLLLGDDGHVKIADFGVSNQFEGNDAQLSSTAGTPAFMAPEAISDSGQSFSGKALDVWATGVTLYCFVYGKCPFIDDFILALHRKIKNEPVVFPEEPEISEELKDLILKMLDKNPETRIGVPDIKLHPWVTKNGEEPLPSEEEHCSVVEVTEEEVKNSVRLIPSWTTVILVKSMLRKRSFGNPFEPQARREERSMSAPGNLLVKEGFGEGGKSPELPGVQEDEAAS
Chain of UniProt P49760 (whole entry, looked up): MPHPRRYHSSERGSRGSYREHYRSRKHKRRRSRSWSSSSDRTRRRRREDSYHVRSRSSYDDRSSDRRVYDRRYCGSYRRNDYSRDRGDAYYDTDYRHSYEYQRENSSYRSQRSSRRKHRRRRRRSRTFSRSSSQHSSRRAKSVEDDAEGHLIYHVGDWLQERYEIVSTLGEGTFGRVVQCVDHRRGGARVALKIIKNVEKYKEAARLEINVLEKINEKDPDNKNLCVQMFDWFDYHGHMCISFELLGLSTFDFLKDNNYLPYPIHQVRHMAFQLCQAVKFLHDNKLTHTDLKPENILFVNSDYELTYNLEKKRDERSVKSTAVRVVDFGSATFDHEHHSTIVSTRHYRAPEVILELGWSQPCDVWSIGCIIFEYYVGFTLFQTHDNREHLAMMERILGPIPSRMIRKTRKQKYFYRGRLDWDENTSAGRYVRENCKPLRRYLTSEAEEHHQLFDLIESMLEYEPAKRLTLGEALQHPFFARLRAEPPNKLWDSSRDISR
Chain of UniProt P29322 (whole entry, looked up): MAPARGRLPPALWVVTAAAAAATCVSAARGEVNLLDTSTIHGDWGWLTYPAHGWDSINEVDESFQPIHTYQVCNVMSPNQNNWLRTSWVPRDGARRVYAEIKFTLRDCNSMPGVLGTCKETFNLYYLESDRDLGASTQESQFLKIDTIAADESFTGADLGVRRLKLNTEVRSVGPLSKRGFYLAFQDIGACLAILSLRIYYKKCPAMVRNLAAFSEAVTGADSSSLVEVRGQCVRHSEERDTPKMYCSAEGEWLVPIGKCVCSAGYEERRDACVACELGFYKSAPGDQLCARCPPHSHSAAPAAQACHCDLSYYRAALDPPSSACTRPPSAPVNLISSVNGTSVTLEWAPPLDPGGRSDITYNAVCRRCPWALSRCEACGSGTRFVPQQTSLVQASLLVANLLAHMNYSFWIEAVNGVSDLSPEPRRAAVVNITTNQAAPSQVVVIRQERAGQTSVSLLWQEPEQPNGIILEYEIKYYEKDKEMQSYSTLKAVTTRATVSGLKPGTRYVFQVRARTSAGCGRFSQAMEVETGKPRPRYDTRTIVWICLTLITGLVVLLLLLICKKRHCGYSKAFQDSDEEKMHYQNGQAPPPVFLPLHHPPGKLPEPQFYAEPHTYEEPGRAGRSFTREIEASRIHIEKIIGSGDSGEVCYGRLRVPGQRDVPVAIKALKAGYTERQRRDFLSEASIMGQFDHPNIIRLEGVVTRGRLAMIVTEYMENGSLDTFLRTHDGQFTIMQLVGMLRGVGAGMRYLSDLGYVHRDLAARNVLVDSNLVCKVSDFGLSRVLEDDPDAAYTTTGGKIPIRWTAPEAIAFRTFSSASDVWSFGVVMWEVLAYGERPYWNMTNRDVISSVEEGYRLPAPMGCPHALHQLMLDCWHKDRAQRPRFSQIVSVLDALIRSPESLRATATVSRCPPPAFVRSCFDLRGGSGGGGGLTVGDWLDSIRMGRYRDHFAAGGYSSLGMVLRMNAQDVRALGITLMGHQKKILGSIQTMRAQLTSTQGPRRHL

Set 1
SMILES: Cn1cc(Cl)c2c(Oc3c(F)cc(Nc4cc(Cl)nc(N)n4)cc3F)ccnc21
Concentration: 0.1 µM
The remaining binding was 100% (SIK1 (Homo sapiens, UniProt P57059); competition binding).
The remaining binding was 87% (CLK2 (Homo sapiens, UniProt P49760); cell-free assay, competition with immobilised ligand).
The remaining binding was 94% (MAP2K3 (Homo sapiens, UniProt P46734); cell-free assay, competition with immobilised ligand).
PRKCI (Homo sapiens, UniProt P41743); cell-free assay, competition with immobilised ligand — remaining binding: 100%.
It gave 98% for remaining binding (CSNK1E (Homo sapiens, UniProt P49674); cell-free assay, competition with immobilised ligand).
For FLT3 (Homo sapiens, UniProt P36888, D835V); cell-free assay, competition with immobilised ligand: remaining binding read 91%.
CAMKK1 (Homo sapiens, UniProt Q8N5S9); cell-free assay, competition with immobilised ligand — remaining binding: 100%.
It gave 100% for remaining binding (EPHA8 (Homo sapiens, UniProt P29322); cell-free assay, competition with immobilised ligand).

Set 2
Cell line: mouse MPNST tumor cells
Technique: high-content nuclear imaging
Item: cell number
Concentration: 10 µM
Time: 12 h
Notes: mean of 2 replicates
Baseline: plate mean
Reading: higher = more cells
For `COc1ccc(-n2c(C)c([N+](=O)[O-])c3ccc(O)cc32)cc1`, the nuclei count was 1.03 z-score.
For `O=c1oc(-c2ccc(C(F)(F)F)cc2)nn1Cc1cc(Cl)ccc1O`, the nuclei count was 0.95 z-score.
With `Cn1cccc1/C=C1\C(=O)NC(=O)c2ccccc21` the nuclei count was -2.52 z-score.
`CCCCC(=O)O[C@H]1CC[C@H]2[C@@H]3CCc4cc(O)ccc4[C@H]3CC[C@]12C` has a nuclei count of -0.782 z-score.
`CCOC(=O)C1CSC(Cc2ccc(OCc3ccc([N+](=O)[O-])cc3)cc2)N1` (centres unmarked) has a nuclei count of -0.317 z-score.
`CN(Cc1cnc2nc(N)nc(N)c2n1)c1ccc(C(=O)N[C@@H](CCC(=O)O)C(=O)O)cc1` (racemic) has a nuclei count of -1.36 z-score.
`COc1c(C)cnc(Cn2cc(C#CCC(C)(C)O)c3c(Cl)nc(N)nc32)c1C` gave a nuclei count of -1.78 z-score.

Set 3
Target: Serine/threonine-protein kinase D3 (PRKD3, Homo sapiens, UniProt O94806)
Effect on: enzyme activity
Action: inhibitor
Concentration: 0.5 µM
Baseline: control
Target sequence (O94806 1-890): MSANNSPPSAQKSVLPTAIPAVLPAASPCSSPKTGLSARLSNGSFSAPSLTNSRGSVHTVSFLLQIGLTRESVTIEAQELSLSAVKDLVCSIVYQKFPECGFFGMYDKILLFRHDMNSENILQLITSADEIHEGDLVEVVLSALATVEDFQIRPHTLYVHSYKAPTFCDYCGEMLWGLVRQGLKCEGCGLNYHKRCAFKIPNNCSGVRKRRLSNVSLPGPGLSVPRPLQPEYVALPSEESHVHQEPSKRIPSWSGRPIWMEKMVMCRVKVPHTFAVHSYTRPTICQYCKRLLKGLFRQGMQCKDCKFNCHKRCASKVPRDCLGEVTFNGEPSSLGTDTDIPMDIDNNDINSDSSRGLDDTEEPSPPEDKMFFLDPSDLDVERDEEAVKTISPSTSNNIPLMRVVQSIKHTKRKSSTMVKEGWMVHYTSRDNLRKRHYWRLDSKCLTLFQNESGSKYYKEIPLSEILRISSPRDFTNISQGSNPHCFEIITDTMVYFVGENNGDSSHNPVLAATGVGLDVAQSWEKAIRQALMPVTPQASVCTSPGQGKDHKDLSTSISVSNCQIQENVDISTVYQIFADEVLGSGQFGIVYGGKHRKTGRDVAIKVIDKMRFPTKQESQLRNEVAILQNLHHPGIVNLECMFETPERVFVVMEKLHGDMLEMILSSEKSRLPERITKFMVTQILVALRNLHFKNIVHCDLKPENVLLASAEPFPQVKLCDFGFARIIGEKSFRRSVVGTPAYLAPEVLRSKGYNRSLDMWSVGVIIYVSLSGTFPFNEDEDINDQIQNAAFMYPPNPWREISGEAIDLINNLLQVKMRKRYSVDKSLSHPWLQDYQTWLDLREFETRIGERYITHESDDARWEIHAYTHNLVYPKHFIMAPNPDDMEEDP
The remaining activity of `Cc1ccc(NC(=O)c2ccc(CN3CCN(C)CC3)cc2)cc1Nc1nc(-c2cccnc2)cs1` is reported as 92.7%.
The remaining activity of `N#CC(C#N)=C(N)/C(C#N)=C/c1ccc(O)cc1` is reported as 91.9%.
For `Nc1[nH]nc2nc3ccccc3nc12`, the remaining activity was 87.3%.
`O=C1NC(=O)C(c2cn(CCCO)c3ncccc23)=C1c1cnccn1` has a remaining activity of 78.2%.
`O=c1c2ccccc2[nH]c(=S)n1CCN1CCC(=C(c2ccc(F)cc2)c2ccc(F)cc2)CC1` gave a remaining activity of 101%.
`Nc1ncnc2n[nH]c(Nc3ccc(F)cc3)c12` has a remaining activity of 86.7%.
With `CC(C)[C@H](CO)Nc1nc(Nc2cc(N)cc(Cl)c2)c2ncn(C(C)C)c2n1` the remaining activity was 89.2%.
`OCC(O)CCON=C1C(c2c(O)[nH]c3ccccc23)=Nc2ccccc21` (centres unmarked) gave a remaining activity of 68.1%.
The remaining activity of `Cc1ccc(Nc2nccc(N(C)c3ccc4c(C)n(C)nc4c3)n2)cc1S(N)(=O)=O` is reported as 90%.
`CCOC(=O)c1c(C)[nH]c(/C=C2\C(=O)Nc3ccccc32)c1C` has a remaining activity of 90.1%.
`C#Cc1cccc(Nc2ncnc3cc(OCCOC)c(OCCOC)cc23)c1` gave a remaining activity of 86.5%.
The remaining activity of `COc1cc2ncnc(Nc3ccc(Oc4ccccc4)cc3)c2cc1OC` is reported as 95.8%.
The remaining activity of `O=C1NC(=O)C(c2cn(CCCn3ccnc3)c3ccccc23)=C1Nc1ccccc1` is reported as 80%.
With `O=C(O)c1ccc2c3c1cccc3c(=O)n1c3ccccc3nc21` the remaining activity was 82.2%.
For `NCCNc1ncc(C(N)=O)c(Nc2cccc(C(F)(F)F)c2)n1`, the remaining activity was 13.5%.

Set 4
Cell line: HaCaT
Concentration: 100 µM
Time: 36 h
`CN(C)CCN(Cc1ccccc1)c1ccccn1` gave a viability of 82.6%.
With `Cc1cc(N)c2ccccc2[n+]1CCCCCCCCCC[n+]1c(C)cc(N)c2ccccc21` the viability was 45.7%.
`CC(C)c1nc(N(C)S(C)(=O)=O)nc(-c2ccc(F)cc2)c1/C=C/[C@@H](O)C[C@@H](O)CC(=O)O` gave a viability of 52.6% and 24.7%.
`O=C1CC2(CCCC2)CC(=O)N1CCCCN1CCN(c2ncccn2)CC1` has a viability of 91.6%.
`O=C(Nc1ccc(Cl)cc1)c1cc(Br)ccc1O` gave a viability of 12.5%.

Repeated from above (set 3):
The remaining activity of `Cc1ccc(Nc2nccc(N(C)c3ccc4c(C)n(C)nc4c3)n2)cc1S(N)(=O)=O` is reported as 90%.
`Nc1ncnc2n[nH]c(Nc3ccc(F)cc3)c12` has a remaining activity of 86.7%.
The remaining activity of `O=C1NC(=O)C(c2cn(CCCn3ccnc3)c3ccccc23)=C1Nc1ccccc1` is reported as 80%.
`C#Cc1cccc(Nc2ncnc3cc(OCCOC)c(OCCOC)cc23)c1` gave a remaining activity of 86.5%.
For `NCCNc1ncc(C(N)=O)c(Nc2cccc(C(F)(F)F)c2)n1`, the remaining activity was 13.5%.
